Measurements pooled from the literature.
Each line is one published result; not all experiments were run side by side. “And” joins repeats or separate records; there may be more than shown. ± gives the spread as reported.

COc1c(CCC[P+](c2ccccc2)(c2ccccc2)c2ccccc2)cc2c(c1OC)OCO2.[I-]  LC50 (NCI-H23; SRB): > -4 log M
O=C([O-])CN1CCN(CC(=O)[O-])CCN(CC(=O)NCC2CCC(C(=O)N[C@@H](Cc3ccc4ccccc4c3)C(=O)NCCCC[C@H](NC(=O)N[C@@H](CCC(=O)O)C(=O)O)C(=O)O)CC2)CCN(CC(=O)[O-])CC1.[177Lu+3] (stereo partly shown)  uptake inhibition by 2-PMPA (LNCaP (PSMA-positive); concentration not given, with: 2-PMPA): 90%
Cn1cncc1C1=CN(c2ncnc3[nH]cnc23)CCS1  CC50 (HCC 2998; colon cancer): > 200 µM
COc1ccc(-c2ccc3ncc4c(c3c2)n([C@@H]2CCN(C)CC2(F)F)c(=O)n4C)cn1  clonogenic survival after radiation (U-251; 3 nM, with: radiation): no effect
C[C@@]1(C(=O)O)CC[C@]2(C)CC[C@]3(C)C4=CC(=O)c5c(cc(O)c(O)c5C=O)[C@]4(C)CC[C@@]3(C)[C@@H]2C1  inhibition (BT-16; cell viability, MTT; 10 µM, 72 h): 94.1%
CC[C@H](C)[C@H](NC(=O)CN)C(=O)NCC(=O)N[C@@H](C)C(=O)N[C@H](C(=O)N[C@@H](CC(C)C)C(=O)N[C@@H](CCCCN)C(=O)N[C@H](C(=O)N[C@@H](CC(C)C)C(=O)N[C@@H](C)C(=O)N[C@H](C(=O)NCC(=O)N[C@@H](CC(C)C)C(=O)N1CCC[C@H]1C(=O)N[C@H](C(=O)N[C@@H](CC(C)C)C(=O)N[C@H](C(=O)N[C@@H](CO)C(=O)N[C@@H](Cc1c[nH]c2ccccc12)C(=O)N[C@H](C(=O)N[C@@H](CS)C(N)=O)[C@@H](C)CC)[C@@H](C)CC)[C@@H](C)O)[C@@H](C)O)C(C)C)[C@@H](C)CC  EC50 (human red blood cells; pH 5.5; relative to: Triton X-100): 16 µM
O=c1cc(-c2ccc(O)cc2)oc2cc(O)cc(O)c12  neurite branch number (induced SH-SY5Y Aβ-GFP cells; 5 µM): 1.8 to 2.1
Oc1ccc(C(c2ccc(O)cc2)(C(F)(F)F)C(F)(F)F)cc1  S phase cells (HepG2 spheroids; Hoechst flow cytometry; 1 µM, 96 h): 8.74 ± 0.78%
COc1ccc2c(c1)[nH]c1c(C)nccc12  methylation reduction (DU-145; bisulfite pyrosequencing, measured: RASSF1A promoter CpG site 4; concentration not given; relative to: vehicle): 0%
CC(C)c1c(CN(C)C(C)Cc2ccccc2)n(C)n(-c2ccccc2)c1=O (stereo not shown)  activity score (human iPSC-derived cardiomyocytes; MyBP-C/MYH ratio, plate-normalised SD score; concentration not given, primary screen; direction not given): 4
COc1cc(CCC[P+](c2ccccc2)(c2ccccc2)c2ccccc2)c(OC)c2c1OCO2.[I-]  GI50 (NCI-H23; SRB): -5.78 log M
CC1=C(O)C(=O)C=C2C1=CC=C1[C@@]2(C)CC[C@@]2(C)[C@@H]3C[C@](C)(C(=O)O)CC[C@]3(C)CC[C@]12C  optical density (HepG2; cell viability, CCK-8; 1 µM; higher = more viable cells): 1.11 a.u. and 1.15 a.u. and 0.997 a.u. and 1.01 a.u. and 0.922 a.u.
CC(c1ccccc1)(c1ccc(O)cc1)c1ccc(O)cc1  spheroid area increase (HepG2 spheroids; planimetry; 10 µM, 0 to 24 h; relative to: mean area of 72 h spheroids): 128%
O=C1N(Cc2ccccc2Cl)c2ccccc2C12NN=C(c1ccccc1)S2 (stereo not shown)  fold change (MDA-MB-468; gene expression array, measured: WDR75 mRNA; 10 µM, 12 h; relative to: untreated, down): 1.76
C/C=C(/C)C(=O)O[C@H]1C(C)=C2[C@H]([C@@H]1OC(=O)CCCCCCC)[C@@](C)(OC(C)=O)C[C@H](OC(=O)CCC)[C@@]1(O)[C@H]2OC(=O)[C@@]1(C)O  log2 fold change (HEK293T; RNA-seq, measured: HSPB1 mRNA; 10 µM, 6 h; relative to: vehicle): -0.534
CC[C@H](C)[C@H](NC(=O)CN)C(=O)NCC(=O)N[C@@H](C)C(=O)N[C@H](C(=O)N[C@@H](CC(C)C)C(=O)N[C@@H](CCCCN)C(=O)N[C@H](C(=O)N[C@@H](CC(C)C)C(=O)N[C@H](C(=O)N[C@H](C(=O)NCC(=O)N[C@@H](CC(C)C)C(=O)N1CCC[C@H]1C(=O)N[C@@H](C)C(=O)N[C@@H](CC(C)C)C(=O)N[C@H](C(=O)N[C@@H](CO)C(=O)N[C@@H](Cc1c[nH]c2ccccc12)C(=O)N[C@H](C(=O)N[C@@H](CCCCN)C(=O)N[C@@H](CCCNC(=N)N)C(=O)N[C@@H](CCCCN)C(=O)N[C@@H](CCCNC(=N)N)C(=O)N[C@@H](CCC(N)=O)C(=O)N[C@@H](CCC(N)=O)C(=O)N[C@@H](CS)C(N)=O)[C@@H](C)CC)[C@@H](C)CC)[C@@H](C)O)[C@@H](C)O)C(C)C)C(C)C  EC50 (human red blood cells; pH 5.5; relative to: Triton X-100): 5 µM
CC(C)N1CCC(NC2CCN(c3cccc(-c4cc5cc(F)ccc5[nH]4)c3)CC2)CC1  GI50 (HCC 2998): 1.79 µM
CN[C@@H]1C[C@H]2O[C@@](C)([C@@H]1OC)n1c3ccccc3c3c4c(c5c6ccccc6n2c5c31)C(=O)NC4  beat amplitude (iCell Cardiomyocytes (hiPSC-derived); xCELLigence Cardio impedance; concentration not given, 2 h; relative to: control): 0%
CCN(CC)c1ccc(C=NNC(=O)CSc2nc3ccccc3c(=O)n2Cc2ccc(S(N)(=O)=O)cc2)c(O)c1  CC50 (NCI-H322M; NCI five-dose screen): > 100 µM
Cc1c(O)c(O)cc2c1CC=C1[C@@]2(C)CC[C@@]2(C)[C@@H]3C[C@](C)(C(=O)O)CC[C@]3(C)CC[C@]12C  activity score (human iPSC-derived cardiomyocytes; MyBP-C/MYH ratio, plate-normalised SD score; concentration not given, primary screen; direction not given): 8.4
CC[C@H](C)[C@H](NC(=O)[C@H](C)NC(=O)[C@H](CCCCN)NC(=O)[C@H](CC(C)C)NC(=O)[C@H](C)NC(=O)[C@@H](NC(=O)[C@H](Cc1c[nH]cn1)NC(=O)[C@H](CC(C)C)NC(=O)[C@@H](NC(=O)[C@@H](NC(=O)[C@H](CCCCN)NC(=O)[C@@H](NC(=O)[C@H](C)NC(=O)[C@H](CCCCN)NC(=O)[C@H](CCCCN)NC(=O)[C@H](Cc1ccccc1)NC(=O)[C@@H](NC(=O)[C@H](CCCCN)NC(=O)[C@H](CC(C)C)NC(=O)[C@H](Cc1ccccc1)NC(=O)[C@H](CO)NC(=O)[C@H](CCCCN)NC(=O)[C@H](Cc1c[nH]c2ccccc12)NC(=O)[C@@H](N)CCCCN)[C@@H](C)O)C(C)C)[C@@H](C)O)C(C)C)[C@@H](C)O)C(=O)N[C@@H](CO)C(=O)N[C@@H](CO)C(=O)N[C@@H](CS)C(N)=O  EC50 (human red blood cells; pH 7.4; relative to: Triton X-100): 10 µM
CN1C(=O)[C@@]23C[C@]4([C@]56C[C@@]78SS[C@@](CO)(C(=O)N7[C@H]5Nc5ccccc56)N(C)C8=O)c5ccccc5N[C@@H]4N2C(=O)[C@]1(CO)SS3  viability (HBL-1; 1 µM, 120 h): 0.324%
CS(=O)(=O)c1ccc(-c2nnc(/C=C/c3nnc(-c4ccc(C#N)cc4)o3)n2-c2ccccc2Cl)nc1  EC50 (Apc Q1405X mutant organoids; organoid area, live-cell imaging; mouse small intestinal organoids; 6 days, Tnks1 genotype Tnks1+/+): 0.0864 µM
O=c1c(O)c(-c2ccc(O)c(O)c2)oc2cc(O)cc(O)c12  total neurite length (induced SH-SY5Y Aβ-GFP cells; 5 µM): 31.8 to 34 µm
Cc1ccc2cc3c(ccc4ccccc43)c3c2c1CC3  plating efficiency (BALB/c 3T3; 15 µM, positive control): 2%
Nc1ncnc2c1ncn2[C@@H]1O[C@@H]2COP(=O)(O)O[C@H]3[C@@H](O)[C@H](n4cnc5c(=O)[nH]cnc54)O[C@@H]3COP(=O)(O)O[C@H]2[C@H]1O  pathway fold enrichment (HFF-1; RNA sequencing, measured: Reactome R-HSA-1971475; downregulated pathway; relative to: Zika virus alone): 11
CN1CCN(S(=O)(=O)c2cc([N+](=O)[O-])ccc2N(CCOS(C)(=O)=O)CCOS(C)(=O)=O)CC1  IC50 fold change (sample DA T-ALL PDX cells; cell viability; ex vivo; 48 h, with: AKR1C3 inhibitor; relative to: with inhibitor over alone): 280
O=S(=O)(c1ccc(O)cc1)c1ccc(O)cc1  G2 phase cells (HepG2 spheroids; Hoechst flow cytometry; 10 µM, 96 h): 18.4 ± 4.21%
CC(=O)O[C@H]1CC[C@@]2(C)[C@H](CC[C@@H]3[C@@H]2CC[C@]2(C)[C@@H](C4=CC(=O)OC4)[C@@H](OC(C)=O)C[C@]32O)C1  activity score (human iPSC-derived cardiomyocytes; MyBP-C/MYH ratio, plate-normalised SD score; concentration not given, primary screen; direction not given): 6.2
Nc1ncc(-c2nc(N3CCOCC3)nc(N3CCOCC3)n2)c(C(F)F)n1  GI50 (Daoy; 72 h): 0.126 µM
CN1CCN(C2(CNC3CCN(c4cccc(-c5cc6cc(F)ccc6[nH]5)c4)CC3)CCC2)CC1  GI50 (HCC 2998): 1.4 µM
C[C@]12CC[C@H](O)C[C@H]1CC[C@@H]1[C@@H]2CC[C@]2(C)[C@@H](C3=CC(=O)OC3)[C@@H](O)C[C@]12O  activity score (human iPSC-derived cardiomyocytes; MyBP-C/MYH ratio, plate-normalised SD score; concentration not given, primary screen; direction not given): 5.9
Cn1nccc1Nc1nccc(-c2cc3c(s2)C(C)(C)N(CCN2CCOCC2)C3=O)n1  PI-positive cells (HCT116; IncuCyte; concentration not given, 16 (unit not given)): 5 count and 4.5 count and 4.25 count
COCCCn1c(N)c(C(=O)NC2CCCC2)c2nc3ccccc3nc21  viability (HBL-1; 0.5 µM, 120 h): 129%
O=c1c2ccccc2[se]n1-c1ccccc1  activity score (human iPSC-derived cardiomyocytes; MyBP-C/MYH ratio, plate-normalised SD score; concentration not given, primary screen; direction not given): 5
COc1c(C)c2c(c(O)c1C/C=C(\C)CCC(=O)O)C(=O)OC2  IC50 (UO-31; cell proliferation; kidney cancer): 1.95 µM
O=c1[nH]c2ccccc2n1C1CCN(Cc2ccc(-c3nc4cc5[nH]cnc5cc4nc3-c3ccccc3)cc2)CC1  inhibition (HeLa expressing Ub(G76V)-GFP; Ub(G76V)-GFP degradation, inhibitor, cycloheximide chase; 12 µM): 99%

Excerpt of the above:
COc1ccc2c(c1)[nH]c1c(C)nccc12  methylation reduction (DU-145; bisulfite pyrosequencing, measured: RASSF1A promoter CpG site 4; concentration not given; relative to: vehicle): 0%
CC(C)c1c(CN(C)C(C)Cc2ccccc2)n(C)n(-c2ccccc2)c1=O (stereo not shown)  activity score (human iPSC-derived cardiomyocytes; MyBP-C/MYH ratio, plate-normalised SD score; concentration not given, primary screen; direction not given): 4
COc1ccc(-c2ccc3ncc4c(c3c2)n([C@@H]2CCN(C)CC2(F)F)c(=O)n4C)cn1  clonogenic survival after radiation (U-251; 3 nM, with: radiation): no effect
O=C([O-])CN1CCN(CC(=O)[O-])CCN(CC(=O)NCC2CCC(C(=O)N[C@@H](Cc3ccc4ccccc4c3)C(=O)NCCCC[C@H](NC(=O)N[C@@H](CCC(=O)O)C(=O)O)C(=O)O)CC2)CCN(CC(=O)[O-])CC1.[177Lu+3] (stereo partly shown)  uptake inhibition by 2-PMPA (LNCaP (PSMA-positive); concentration not given, with: 2-PMPA): 90%
